Measured values pooled from the literature.

technique	medium	tested at	time	unbound fraction	SMILES
–	human plasma	–	–	0.11	C=CC(=O)N1CC2C(=O)N(CCN(C)C)c3c(c4cc(Cl)c(-c5c(O)cccc5F)nc4n(-c4c(C)ccnc4C(C)C)c3=O)N2CC1C (stereo not drawn)
–	human plasma	–	–	1%	CC(C)(C)n1ncc2c(=O)n(Cc3cccc(F)c3)c(NCc3ccc(F)cn3)nc21
–	mouse plasma	–	–	0.87	Cc1cccc(-c2ccc3nc(NC(=O)C4CCCCC4)nn3c2)c1
–	rat plasma	–	–	0.0402	Cc1[nH]nc2c1N=C(c1ccccc1Cl)c1cnc(N3CCOCC3)cc1N2
–	human plasma	–	–	11.1%	C=CC(=O)Nc1cc(Nc2nccc(Nc3cc(Cl)c(F)cc3C(C)(C)O)n2)c(OC)cc1N1CC[C@H](N(C)C)C1
rapid equilibrium dialysis	mouse plasma	3 µM	–	0.168	c1n[nH]c2nnc(N3CCCCC3)cc12
–	rat plasma	–	–	0.048	CCC1(CC)CC(=O)N(C2CCOc3ccc(C(=O)NC4CC(C)(C)Oc5ccccc54)cc32)C(=N)N1 (stereo not drawn)
–	human plasma	–	–	71.1%	C=CC(=O)Nc1cc(Nc2ncnc(Nc3ccccc3S(N)(=O)=O)n2)c(OC)cc1N(C)CCN(C)C
rapid equilibrium dialysis	mouse plasma	3 µM	–	0.087	Fc1cccc(-c2cc3cn[nH]c3nn2)c1F
–	monkey plasma	1 µM	5 h	0.081	COC1C(c2ccc(Cl)c(Cc3ccc(OC4CCOC4)cc3)c2)OC(CO)C(O)C1O (stereo not drawn)
–	mouse plasma	–	–	0.153	CCC1(CC)CC(=O)N(C2c3cc(C(=O)NC4c5ccccc5CC4O)ccc3OC2(C)COC)C(=N)N1 (stereo not drawn)
–	human plasma	–	–	33.6%	C=CC(=O)Nc1cc(Nc2ncnc(Nc3ccccc3C(C)(C)O)n2)c(OC)cc1N(C)CCN(C)C

Repeated from above:
technique	medium	tested at	time	unbound fraction	SMILES
–	monkey plasma	1 µM	5 h	0.081	COC1C(c2ccc(Cl)c(Cc3ccc(OC4CCOC4)cc3)c2)OC(CO)C(O)C1O (stereo not drawn)
–	human plasma	–	–	33.6%	C=CC(=O)Nc1cc(Nc2ncnc(Nc3ccccc3C(C)(C)O)n2)c(OC)cc1N(C)CCN(C)C
